Results pooled from the literature.
Several values in a cell are separate wells, animals, samples, runs or records. ± marks the error that the study gave.

| Compound | tested on | test | system | conditions | how to read | measurement | result |
| --- | --- | --- | --- | --- | --- | --- | --- |
| COc1ccnc(Nc2ccc(Cl)cc2OCC=C(C)C)n1 | HIV-1 | MTT | MT-2, RT Y181C mutant | concentration not given | – | antiviral activity | inactive |
| COc1ccc2c(c1)OCCCC=CCCCCN(CC(O)C(Cc1ccccc1)NC(=O)OC1COC3OCCC13)S2(=O)=O (mixture of isomers) | HIV-1 | viral replication | PHA-stimulated PBMCs, HIV-1MDR/G X4 multidrug-resistant | – | – | IC50 | 28 ± 4 nM |
| CC(C)n1ccn2cc(C(=O)NCc3ccc(F)cc3F)c(=O)c(O)c2c1=O | HIV-1 | viral replication, single-round vector infection | IN E138K/G140C/Q148R | – | – | EC50 | 56.1 ± 6.9 nM |
| CC[C@H](C)[C@@H]([C@@H](CC(=O)N1CCC[C@H]1[C@H](OC)[C@@H](C)C(=O)N[C@H](C)[C@@H](O)c1ccccc1)OC)N(C)C(=O)[C@@H](NC(=O)[C@H](C(C)C)N(C)C(=O)OCc1ccc(NC(=O)[C@H](CCCNC(N)=O)NC(=O)[C@@H](NC(=O)CCCC(=O)NCCC(=O)N(C)CC(=O)N(C)CC(=O)N(C)CC(=O)N(C)CC(=O)N(C)CC(=O)N(C)CC(=O)N(C)CC(=O)N(C)CC(=O)N(C)CC(=O)N(C)CC(=O)N[C@H]2CSCCC(=O)N3CN4CN(C3)C(=O)CCSC[C@H](NC(=O)[C@@H](CC(=O)O)NC(=O)[C@H](Cc3cccc5ccccc35)NC(=O)[C@@H]3CCCN3C2=O)C(=O)N[C@@H](CCSC)C(=O)N[C@@H](CCCCNC(=N)N)C(=O)N[C@@H](CC(=O)O)C(=O)N[C@@H](Cc2c[nH]c3ccccc23)C(=O)N[C@@H](CO)C(=O)N[C@@H]([C@@H](C)O)C(=O)N2CCC[C@H]2C(=O)N2C[C@H](O)C[C@H]2C(=O)N[C@@H](Cc2c[nH]c3ccccc23)C(=O)N[C@H](C(N)=O)CSCCC4=O)C(C)C)cc1)C(C)C | – | – | mouse, plasma | intravenous, 3 mg/kg | – | clearance | 3.5 mL/min/kg |
| C[C@H](Nc1ncnc(N)c1C#N)c1c(-c2ccccc2)[nH]c2c(Cl)cccc2c1=O | – | – | Sprague-Dawley rats | dose not given | – | lethal dose | 200 mg/kg |
| CCCC/C=C/C(=O)N[C@@H](Cc1csc2ccccc12)C(=O)N[C@H]1COC(=O)[C@@H]2C[C@@H](C)CN2C(=O)[C@H](C)NC(=O)[C@@H]2CCCCN2C(=O)[C@@H]2CCCN2C1=O | SARS-CoV-2 | – | SB2 | – | reference: CC50 over IC50 | selectivity index | 35 to 70 |
| CCCCCCCCCCCCCCCC(=O)N[C@@H](CCC(=O)NCCOCCOCCC(=O)NCCOCCOCCC(=O)NCCCC[C@H](NC(=O)[C@H](CC(=O)O)NC(=O)[C@H](CC(C)C)NC(=O)[C@H](Cc1ccc(O)cc1)NC(=O)[C@H](CCCCN)NC(=O)[C@H](CO)NC(=O)[C@H](Cc1ccc(O)cc1)NC(=O)[C@H](CC(=O)O)NC(=O)[C@H](CO)NC(=O)[C@@H](NC(=O)[C@H](Cc1ccccc1)NC(=O)[C@@H](NC(=O)CNC(=O)[C@H](CCC(N)=O)NC(=O)[C@@H](CO)NC(=O)[C@@H](N)Cc1c[nH]cn1)[C@@H](C)O)[C@@H](C)O)C(=O)N[C@@H](CCCNC(=N)N)C(=O)N[C@@H](CCCNC(=N)N)C(=O)N[C@@H](C)C(=O)N[C@@H](CCC(N)=O)C(=O)N[C@@H](CC(=O)O)C(=O)N[C@@H](Cc1ccccc1)C(=O)N[C@H](C(=O)N[C@@H](CCC(N)=O)C(=O)N[C@@H](Cc1c[nH]c2ccccc12)C(=O)N[C@@H](CC(C)C)C(=O)N[C@@H](CC(C)C)C(=O)N[C@@H](CC(N)=O)C(=O)N[C@H](C(=O)NCC(=O)NCC(=O)N1CCC[C@H]1C(=O)N[C@@H](CO)C(=O)N[C@@H](CO)C(=O)NCC(=O)N[C@@H](C)C(=O)N1CCC[C@H]1C(=O)N1CCC[C@H]1C(=O)N1CCC[C@H]1C(=O)N[C@@H](CO)C(N)=O)[C@@H](C)O)C(C)C)C(=O)O | – | – | rhesus monkey, plasma | subcutaneous, 5 µg/kg, single dose | – | MRT | 5.68 h |
| Cc1nc([C@H](NC(=O)c2ccc(-c3ccc(Cl)cc3)[nH]2)[C@@H]2CCCCN2)sc1CO | HIV-1 | viral replication | MT-2, IIIB | – | – | IC50 | 850 nM and ≥ 800 nM |
| CCN(Cc1cccc(S(=O)(=O)O)c1)c1ccc(C(=C2C=CC(=[N+](CC)Cc3cccc(S(=O)(=O)[O-])c3)C=C2)c2ccccc2)cc1 | HIV-1 | pseudovirus infection | SF162 K35A | – | – | IC50 | > 40000 nM |
| NC(=O)C[C@@H]1NC(=O)[C@H](Cc2ccc(OS(=O)(=O)O)cc2)NC(=O)c2cccc(c2)CNC(=O)[C@H](Cc2ccc(OS(=O)(=O)O)cc2)NC(=O)[C@H](CC(=O)O)NC1=O | HIV-1 | viral entry | NP2.CD4.CCR5, TA1 engineered Env pseudotype | – | – | IC50 | 159000 ± 30000 nM |
| Cc1cc(/C=C/C#N)cc(C)c1-n1cnc2cnc(Nc3ccc(C#N)cc3)nc21 | HIV-1 | viral replication, single-round infection | RT mutant E138K/M184I | – | – | EC50 | 0.9 ± 0.6 nM |
| Cc1cc(/C=C/C#N)cc(C)c1Oc1nc(NC2CCN(Cc3ccc(S(C)(=O)=O)cc3)CC2)nc2ncccc12 | HIV-1 | in vitro resistance selection | MT4, IIIB | 39 passages | – | concentration at resistance emergence | 5.3 µM |
| CC(C)N1CCn2cc(C(=O)NCc3ccc(F)cc3F)c(=O)c(O)c2C1=O | HIV-1 | viral replication, single-round vector infection | IN E138K/G140C/Q148R | – | – | EC50 | 54.2 ± 11.9 nM |
| Cc1cc(C)cc(S(=O)(=O)c2c(C(=O)NC3CC4(C3)CN(Cc3n[nH]c(=O)[nH]3)C4)[nH]c3ccc(Cl)cc23)c1 | HIV-1 | viral replication | MT-4, E138K mutant | – | – | EC50 | 40 ± 20 nM |
| CC[C@H](C)[C@H](NC(C)=O)C(=O)N[C@@H](CO)C(=O)N[C@@H](CC(C)C)C(=O)N[C@@H](CCC(=O)O)C(=O)N[C@@H](CCCNC(=N)N)C(=O)N[C@@H](CC(C)C)C(=O)N[C@@H](CC(=O)O)C(=O)N[C@H](C(=O)NCC(=O)N[C@H](C(=O)N[C@@H](CC(N)=O)C(=O)N[C@@H](CC(C)C)C(=O)NCC(=O)N[C@@H](CC(N)=O)C(=O)N[C@@H](C)C(=O)N[C@H](C(=O)N[C@@H](C)C(=O)N[C@@H](CCCCN)C(=O)N[C@@H](CC(C)C)C(=O)N[C@@H](CCC(=O)O)C(=O)N[C@@H](CC(=O)O)C(=O)N[C@@H](C)C(=O)N[C@@H](CCCCN)C(=O)N[C@@H](CCC(=O)O)C(=O)N[C@@H](CC(C)C)C(=O)N[C@@H](CC(C)C)C(=O)N[C@@H](CCC(=O)O)C(=O)N[C@@H](CO)C(=O)N[C@@H](CO)C(=O)N[C@@H](CC(=O)O)C(=O)N[C@@H](CCC(N)=O)C(=O)N[C@H](C(=O)N[C@@H](CC(C)C)C(=O)N[C@@H](CCCNC(=N)N)C(=O)N[C@@H](CO)C(N)=O)[C@@H](C)CC)[C@@H](C)CC)[C@@H](C)O)C(C)C | B95a | MTT | – | 8 days, 37 °C | – | CC50 | > 10000 nM |
| Cc1cc(/C=C/C#N)cc(C)c1Nc1nc(Nc2ccc(C#N)cc2)ncc1N | HIV-1 | viral replication, single-round infection | RT mutant M184V | – | – | EC50 | 0.4 ± 0.04 nM |
| Cc1cc(C)cc(S(=O)(=O)c2c(C(N)=O)[nH]c3ccc(Cl)cc23)c1 | HIV-1 | viral replication | MT-4, E138K mutant | – | – | EC50 | 900 ± 65 nM |
| CCCCCCCCCCCCCCCC(=O)N[C@@H](CCC(=O)NCCCC[C@H](NC(=O)[C@H](CC(=O)O)NC(=O)[C@H](CO)NC(=O)[C@@H](NC(=O)[C@H](Cc1ccccc1)NC(=O)[C@@H](NC(=O)CNC(=O)[C@H](CCC(N)=O)NC(=O)[C@H](C)NC(=O)[C@@H](Cc1ccc(O)cc1)NC(C)=O)[C@@H](C)O)[C@@H](C)O)C(=O)N[C@@H](CO)C(=O)N[C@@H](CCCCN)C(=O)N[C@@H](Cc1ccc(O)cc1)C(=O)N[C@@H](CC(C)C)C(=O)N[C@@H](CC(=O)O)C(=O)N[C@@H](CCC(=O)O)C(=O)N[C@@H](CCCNC(=N)N)C(=O)N[C@@H](C)C(=O)N[C@@H](C)C(=O)N[C@@H](CCC(N)=O)C(=O)N[C@@H](CC(=O)O)C(=O)N[C@@H](Cc1ccccc1)C(=O)N[C@H](C(=O)N[C@@H](CCC(N)=O)C(=O)N[C@@H](Cc1c[nH]c2ccccc12)C(=O)N[C@@H](CC(C)C)C(=O)N[C@@H](CC(C)C)C(=O)N[C@@H](CCC(=O)O)C(=O)NCC(=O)NCC(=O)N1CCC[C@H]1C(=O)N[C@@H](CO)C(=O)N[C@@H](CO)C(=O)NCC(=O)N[C@@H](C)C(=O)N1CCC[C@H]1C(=O)N1CCC[C@H]1C(=O)N1CCC[C@H]1C(=O)N[C@@H](CO)C(N)=O)C(C)C)C(=O)O | – | – | cynomolgus monkey, plasma | intravenous, 0.0031 mg/kg | – | AUC(0-inf) | 365 to 505 ng·h/mL |

Some of these lines once more:
| Compound | tested on | test | system | conditions | how to read | measurement | result |
| --- | --- | --- | --- | --- | --- | --- | --- |
| CC[C@H](C)[C@@H]([C@@H](CC(=O)N1CCC[C@H]1[C@H](OC)[C@@H](C)C(=O)N[C@H](C)[C@@H](O)c1ccccc1)OC)N(C)C(=O)[C@@H](NC(=O)[C@H](C(C)C)N(C)C(=O)OCc1ccc(NC(=O)[C@H](CCCNC(N)=O)NC(=O)[C@@H](NC(=O)CCCC(=O)NCCC(=O)N(C)CC(=O)N(C)CC(=O)N(C)CC(=O)N(C)CC(=O)N(C)CC(=O)N(C)CC(=O)N(C)CC(=O)N(C)CC(=O)N(C)CC(=O)N(C)CC(=O)N[C@H]2CSCCC(=O)N3CN4CN(C3)C(=O)CCSC[C@H](NC(=O)[C@@H](CC(=O)O)NC(=O)[C@H](Cc3cccc5ccccc35)NC(=O)[C@@H]3CCCN3C2=O)C(=O)N[C@@H](CCSC)C(=O)N[C@@H](CCCCNC(=N)N)C(=O)N[C@@H](CC(=O)O)C(=O)N[C@@H](Cc2c[nH]c3ccccc23)C(=O)N[C@@H](CO)C(=O)N[C@@H]([C@@H](C)O)C(=O)N2CCC[C@H]2C(=O)N2C[C@H](O)C[C@H]2C(=O)N[C@@H](Cc2c[nH]c3ccccc23)C(=O)N[C@H](C(N)=O)CSCCC4=O)C(C)C)cc1)C(C)C | – | – | mouse, plasma | intravenous, 3 mg/kg | – | clearance | 3.5 mL/min/kg |
